Assay results from different studies.
“And” joins repeats or separate records; there may be more than shown.
Target: Protein kinase C epsilon type (PRKCE, Homo sapiens, UniProt Q02156)

CC(=O)N1c2ccc(-c3ccc(CNC(=O)c4cn5cc(-c6cnc(N)nc6)nc(N6CCOCC6)c5n4)cc3)cc2CC[C@@H]1C  remaining binding (KINOMEscan; 10 µM): 84%
COc1c(Cl)cccc1Nc1c(-c2ccncc2C#C[C@@]2(C)CCCN2C(=O)/C=C/CN(C)C)[nH]c2c1C(=O)NCC2  remaining binding (cell-free assay, competition with immobilised ligand; 3 µM): 81%
CNC(=O)C[C@H](Cc1ccc(C#N)cc1)NC(=O)c1cc(-c2ccc(CN[C@H](C)c3ccc(C)cc3)o2)ccc1Cl  activity vs control (enzyme activity, inhibitor; 1 µM): 102%
C=CC(=O)Nc1cccc(-c2cnc3[nH]cc(C(=O)NC(C)(C)C)c3n2)c1  inhibition (kinase activity; 0.1 µM): 12% and 10%
CN1CCN(Cc2ccc(-c3ccc(CO[C@H]4CCC[C@@H]4NC(=O)c4cc(-c5cnn(C)c5)cnc4N)cc3)cc2)CC1  inhibition (enzyme activity, inhibitor; 0.1 µM): 11%
COc1ccc(NC(=O)Nc2ccc3c(c2)C(=O)N(C(C)CO)CC(C)C(CN(C)Cc2ccc4c(c2)OCO4)O3)cc1 (stereo not drawn)  remaining activity (kinase activity, KinaseProfiler; 0.03 µM, species human; baseline: control): 96%
CNC(=O)C1CCN(c2cc(C)c(F)cc2NC(=O)c2ccc(-c3cc(O)ccc3C)c(C)c2)CC1  remaining binding (binding, competition with immobilised ligand; 1 µM): 100%
Cc1c[nH]c2nccc(-c3ccc(C(=O)N[C@@H]4c5c(F)cc(C(F)F)cc5C[C@@H]4O)cn3)c12  remaining binding (binding, competition with immobilised ligand; 3 µM): 18%
CC(C)=CC1OC(C)(C)C2C=C3C(=O)C(Cl)=CC(O)C3C3C(O)C4OC4C(=O)C132 (stereo not drawn)  remaining binding (cell-free assay, competition with immobilised ligand; 10 µM): 53%
Cc1cnc2nc1Nc1cccc(c1)COC/C=C/COCc1cc(ccc1OCCN1CCOCC1)N2  remaining binding (binding; 0.1 µM): 75%
C=CC(=O)Nc1cc(-c2nn(C3CCN(CCNC(=O)[C@H](C)CCC45CC6CC(CC(C6)C4)C5)CC3)c3ncnc(N)c23)ccc1Oc1ccccc1  inhibition (inhibitor, KiNativ profiling; biochemical; 2 µM): 15.6%
NC(=O)C[C@H]1CCc2sc3ncnc(O[C@H]4CC[C@H](N5CCOCC5)CC4)c3c21  inhibition (enzyme activity, inhibitor; 10 µM): -7%
C=CC(=O)N1CCCC(n2c(=O)c3ncccc3n(Cc3ccc(Oc4ccccc4)cc3)c2=O)C1 (stereo not drawn)  remaining binding (cell-free assay, competition with immobilised ligand; 1 µM): 68%
CCn1cc(C(=O)O)c(=O)c2c(N)c(F)c(NC3CCCCC3)cc21  inhibition (kinase activity; 0.1 µM, together with: ATP at Km): 0%
C=CC(=O)N1CCc2ccc(-n3c(=O)ccc4cnc5ccc(-c6cnn(C)c6)cc5c43)cc21  remaining binding (KINOMEscan; 1 µM; baseline: DMSO control): 87%
CN1CCN(Cc2ccc(NC(=O)c3cccc(C#Cc4cnc(N)c5ncccc45)c3)cc2C(F)(F)F)CC1  remaining binding (cell-free assay, competition with immobilised ligand; 0.5 µM): 65%
Nc1ncc2c(n1)-c1c([nH]c3ccc(C4=CCOCC4)cc13)CCC2  remaining binding (binding, competition with immobilised ligand; 1 µM): 85%
O=C=[N][Ru-4]123([n]4c5ccc(O)cc5c5c6c(c7cc(F)c[n+]1c7c54)C(=O)NC6=O)[S+]1CC[S+]2CC[S+]3CC1 (stereo not drawn)  remaining activity (enzyme activity; 100 nM, human enzyme, together with: 10 µM ATP; baseline: untreated): 90%
